Experimental data of several laboratories.
A part holds a random share of what one study measured. Positions count from the first letter of the parent shown.

Block 1
Target: CCND2, cyclin fold, Cln2 fusion (human)
Technique: yeast growth competition, sequencing
Matrix: yeast
Setting: weak parent motif
Baseline: not given
Direction: higher = stronger binding
Parent: PKMYT1 docking peptide (human); SFEPRNLLSLFED; partner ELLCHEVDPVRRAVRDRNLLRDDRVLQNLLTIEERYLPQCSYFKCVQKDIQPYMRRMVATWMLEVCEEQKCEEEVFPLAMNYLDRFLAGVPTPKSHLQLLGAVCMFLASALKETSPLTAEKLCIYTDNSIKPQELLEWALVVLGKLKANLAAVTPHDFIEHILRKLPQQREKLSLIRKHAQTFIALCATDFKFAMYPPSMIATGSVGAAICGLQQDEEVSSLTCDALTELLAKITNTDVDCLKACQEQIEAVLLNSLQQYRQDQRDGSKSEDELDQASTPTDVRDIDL
Variant | normalised enrichment score
SFEPANLLSLFED [R5A] | 0.248
SFEPRNLLSLPED [F11P] | 0.0675
SFECRNLLSLFED [P4C] | 0.102
SFEPRNLSSLFED [L8S] | -0.117
SFEWRNLLSLFED [P4W] | 0.305
SFEPRNLLSLFEN [D13N] | 0.134
SFEPRNLLSLFEC [D13C] | -0.0965
SFPPRNLLSLFED [E3P] | 0.453
SFEPRNLLSLFEW [D13W] | -0.149

Block 2
Target: ABI1, truncated, D143A, DHFR fusion (Arabidopsis thaliana)
Technique: DHFR PCA, deep sequencing
Matrix: yeast
Setting: methotrexate growth selection, single substitutions
Added: (+)-ABA 0.11 µM
Baseline: wild-type fitted maximum
Direction: higher = stronger binding
Parent: PYL1, truncated, DHFR fusion (Arabidopsis thaliana); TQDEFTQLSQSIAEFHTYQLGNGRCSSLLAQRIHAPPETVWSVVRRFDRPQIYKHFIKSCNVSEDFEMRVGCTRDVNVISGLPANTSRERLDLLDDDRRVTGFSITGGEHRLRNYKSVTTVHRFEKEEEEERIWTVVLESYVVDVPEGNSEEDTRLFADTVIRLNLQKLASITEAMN; partner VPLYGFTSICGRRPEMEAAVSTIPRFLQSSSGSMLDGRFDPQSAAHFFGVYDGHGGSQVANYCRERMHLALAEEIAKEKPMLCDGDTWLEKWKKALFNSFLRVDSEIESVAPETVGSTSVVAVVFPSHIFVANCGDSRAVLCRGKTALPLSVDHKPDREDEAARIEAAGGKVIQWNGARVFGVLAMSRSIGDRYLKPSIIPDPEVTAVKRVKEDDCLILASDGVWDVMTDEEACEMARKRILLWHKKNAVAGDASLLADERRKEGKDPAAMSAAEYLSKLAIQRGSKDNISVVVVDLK
Variant | relative binding score [%]
S11Y | 35.1
R45N | -1.23
A84T | 26.6
D95M | -7.03
L91R | -0.919

Block 3
Target: Prothrombin, mature alpha-thrombin (F2, Homo sapiens, UniProt P00734)
Technique: aptamer microarray, sandwich
Form: DNA with 2'F-ANA
Matrix: in vitro
Tested at: 200 nM
Setting: whole 15-mer aptamer, many near background
Added: Cy3 exosite-II aptamer, 400 nM
Direction: higher = stronger binding
Sequence: GGTTGGTGTGGTTGG
Modification | mean fluorescence intensity
2'F-ANA at 1 2 3 4 5 8 9 10 11 12 13 14 15 | 55.5 a.u.
2'F-ANA at 1 3 4 6 7 9 14 | 62 a.u.
2'F-ANA at 1 4 5 6 7 8 10 11 12 14 | 96.3 a.u.
2'F-ANA at 3 4 6 7 8 10 12 14 15 | 149 a.u.
2'F-ANA at 1 2 3 4 5 6 8 11 15 | 67.4 a.u.
2'F-ANA at 3 5 7 11 12 14 | 57.2 a.u.
2'F-ANA at 1 2 3 4 7 9 10 12 13 14 15 | 51.4 a.u.
2'F-ANA at 2 3 6 7 8 10 11 15 | 301 a.u.

Other studies, line by line
Molecule | target | assay | test system | conditions | how to read | measurement | value
PhoQ, residues 284 288 289 292 302 303 SCEHLI | PhoP, residues 12 14 15 18 19 LHSVW (Escherichia coli, UniProt P23836) | Sort-seq, measured: YFP reporter | E. coli | PhoQ-PhoP variant library, added: 10 µM Mg2+ | baseline: high Mg2+ state, higher = stronger signaling | fold induction | 5.74

Repeated from above (block 1):
Variant | normalised enrichment score
SFPPRNLLSLFED [E3P] | 0.453
SFEPRNLLSLFEW [D13W] | -0.149
